# Published values pooled from the literature.
# Lines come from different studies, so protocols differ. Values joined by “and” are separate records of one study, mostly repeats; a detail may differ.
# Target: Protein kinase C epsilon type (PRKCE, Homo sapiens, UniProt Q02156)
SMILES,assay,conditions,scale,measurement,result
O=c1c(-c2ccc(Cl)c(CN3CCOCC3)c2)coc2cc(O)ccc12,"enzyme activity, inhibitor",1 µM,,remaining activity,104%
NC(=O)[C@@H](O)C[C@H]1CCc2sc3ncnc(O[C@H]4CC[C@H](N5CCOCC5)CC4)c3c21,"enzyme activity, inhibitor",10 µM,,inhibition,-6%
COc1ccc(NC(=O)Nc2ccc3c(c2)C(=O)N(C(C)CO)CC(C)C(CN(C)Cc2ccc4c(c2)OCO4)O3)cc1 (centres unmarked),"binding, competition with immobilised ligand",10 µM,,remaining binding,100%
CCN1CCN(Cc2ccc(C(=O)Nc3ccc(C)c(NCc4cnc5[nH]ccc5c4OC)c3)cc2C(F)(F)F)CC1,"binding, competition with immobilised ligand",1 µM,,remaining binding,100%
COCC12C(=O)NC3C4(C(OC)CC1O)C1CC5(O)C(OC)C(O)C(OC(C)=O)(C1C5OC(=O)c1ccccc1)C3(O)C(OC)C24 (centres unmarked),"kinase activity, inhibitor, ProQinase kinase profiling",25 µM,baseline: control,remaining activity,84% and 85%
C=CC(=O)Nc1cccc(-c2cnc3[nH]cc(C(=O)NC(C)(C)C)c3n2)c1,"enzyme activity, inhibitor",0.1 µM,,inhibition,11%
COc1cc(Nc2nccc(-c3cnn4nc(OC)ccc34)n2)cc(C(F)(F)F)c1,"binding, competition with immobilised ligand",1 µM,,remaining binding,87%
C=CC(=O)N1Cc2nc(-c3cc(-c4cc(Cl)cnc4Cl)c(F)cc3F)n(-c3ccncn3)c2C1,cell-free assay,1 µM,,inhibition,5%
Nc1ncc(-c2cc(-c3cnn(CC(F)(F)F)c3)ncc2F)nc1C(=O)NC1CNCC(F)C1 (centres unmarked),enzyme activity,1 µM,baseline: DMSO control,remaining activity,92.7%
CNC1C[S+]2CC[S+]3CC[S+](C1)[Ru-4]321([N]=C=S)[n]2c3ccc(OC)cc3c3c4c(c5cc(F)c[n+]1c5c32)C(=O)NC4=O (centres unmarked),KinomeScan,0.1 µM,baseline: untreated,remaining binding,68%
C=C1CCCCCCCCCC(CO)C1=O (centres unmarked),cell-free assay,10 µM,,remaining signal,100%
CN1CCN(Cc2ccc(NC(=O)c3cccc(C#Cc4cnc(N)c5ncccc45)c3)cc2C(F)(F)F)CC1,"cell-free assay, competition with immobilised ligand",50 nM,,remaining binding,63%
Cc1ccc(-c2c(/C=C(\C#N)C(=O)NC(C)C)n(CCCO)c3ncnc(N)c23)cc1,"cell-free assay, competition with immobilised ligand",1 µM,,remaining binding,88%
CN1CC[C@@H](COc2cnc(C#N)cc2-c2ccn3nc(NC(=O)C4CC4)cc3c2)C1,"enzyme activity, inhibitor",1 µM,,inhibition,-8%
O=C(Cc1ccc(OCc2ccccc2)cc1)NC1(C(=O)O)CCN(C(=O)c2ccc(-c3cccc(Cl)c3)cc2)CC1,"enzyme activity, inhibitor",10 µM,,activity vs control,103%
COc1c(OCCCN2CCOCC2)ccc2c1N=C(NC(=O)c1cnc(N)nc1)N1CCN=C21,"kinase activity, inhibitor",1 µM,baseline: untreated control,remaining activity,95%
CNS(=O)(=O)Nc1nccc(Cc2c(C)c3ccc(Oc4ncccc4F)cc3oc2=O)c1F,"cell-free assay, competition with immobilised ligand",10 µM,,remaining binding,100%

# Some of these lines once more:
SMILES,assay,conditions,scale,measurement,result
NC(=O)[C@@H](O)C[C@H]1CCc2sc3ncnc(O[C@H]4CC[C@H](N5CCOCC5)CC4)c3c21,"enzyme activity, inhibitor",10 µM,,inhibition,-6%
